Assay results gathered from unrelated publications.
Numbered parts are unrelated; each lists some results of a single study.

Series 1 — technique: RNA Bind-n-Seq; molecule type: RNA; matrix: in vitro; concentration: 365 nM; reference: no-protein control; reading: higher = stronger binding; measurement: RBNS enrichment (R)
Target: RNA binding protein fox-1 homolog 2, RRM domain, GST-SBP tag (RBFOX2, Homo sapiens, UniProt O43251-10, residues 100-194)
Notes: natural RNA segment, single round, ends assumed
Constant ends, left off below: GGGAGUUCUACAGUCCGACGAUC … UGGAAUUCUCGGGUGCCAA
GCUCCUCCCAACUGCGGCUAAGCAGAGGAUGGCAGUGUUGGAAUAAGAUCUCUCAAAUCUUGGAUUAUAAUUUUAUUAGAGUUUUGUAAUAAAAUUUAUUUUAUAACAAG: 0.519
CGUAAAUGUCUAGUCUUCUCACAUAGAGAUUAACCAACAAACUUGUGUGGCUGACUUUUGUGUAAGAAUCAUAGUUUGCUUUAGAAUACAAAUCUUUAAGUCAUUUUAAC: 0.395
CACUGGAAGUCAAAUUCACUUAAAAAAGAAAUUGUGUGGCUUCACCAAGAAGCAGAGUUCAACUUAUUUCAUAAUUGCCUACAUUUAUCACAGUCCUGAAUGUAGCGUGU: 0.845
AAGUUUACAGAUGUUUUUAAUUCUAGUAUUUUAUCUGGAACAACUUGUAGCAGCUAUAUAUUUCCCCUUGGUCCCAAGCCUGAUACUUUAGCCAUCAUAACUCACUAACA: 0.519
AAUCUAGCCUAGCUGGCCUUAUUUGGGAAGCGUAACUGCUUUUAGCAUAUGGGAGUAUUUUUUCACAUUUUCUUUGUAUAAAAUUUGUAUUAAACUUAAAUAUCUUUUUU: 0.491
AGGCAUUUGAGCUCGACCUCCGAAAAGCUACCCAGCAAAGAGCAGUCUGUGCCUCUGAGCAGACCGUGAGAACUCAGGGGACGAGUGGCUAAGAGCAUGGCCUCUCCCAG: 0.881
CUUUAAAUCUGAUGUUUCCUGUACCUGCCACACUAUGUUAGAAUGUGUCCUUCAAACAUAUCCUCCUGCAACUUCUCAAACUGUACUAAAUUGAUAUUUCUUGAAGUCUA: 0.561
UUUUUUUUUUCACUUAGAAUUUAGCUCCAUUUGCUUGAGAGAGGGGGAAAAAUUCAUAUCUGUUUCUCUUUGUUUGCAAAUAAGCCUUAGGAUGGCUGUUUUCUAUGCUG: 0.862

Series 2 — cell line: HEK-293T/ACE2; concentration: 10 µM; time: 16 h; reference: vehicle; measurement: viability
CC(=O)Oc1ccccc1C(=O)Nc1ncc([N+](=O)[O-])s1: 82%
N[C@@H](C(=O)N[C@@H]1C(=O)N2C(C(=O)O)=C(Cl)CS[C@H]12)c1ccccc1: 101%
NS(=O)(=O)c1cc2c(cc1Cl)N=CNS2(=O)=O: 101%
CC1(C)O[C@@H]2[C@@H](CO[C@@]3(COS(N)(=O)=O)OC(C)(C)O[C@@H]23)O1: 101%

Series 3 — technique: universal PBM; molecule type: double-stranded DNA, one strand shown; matrix: in vitro; concentration: 600 nM; reading: higher = stronger binding; measurement: E-score
Target: Sal-like protein 4, full length isoform A (SALL4, Homo sapiens, UniProt Q9UJQ4, residues 1-1053)
Sequence of UniProt Q9UJQ4 (whole entry, looked up): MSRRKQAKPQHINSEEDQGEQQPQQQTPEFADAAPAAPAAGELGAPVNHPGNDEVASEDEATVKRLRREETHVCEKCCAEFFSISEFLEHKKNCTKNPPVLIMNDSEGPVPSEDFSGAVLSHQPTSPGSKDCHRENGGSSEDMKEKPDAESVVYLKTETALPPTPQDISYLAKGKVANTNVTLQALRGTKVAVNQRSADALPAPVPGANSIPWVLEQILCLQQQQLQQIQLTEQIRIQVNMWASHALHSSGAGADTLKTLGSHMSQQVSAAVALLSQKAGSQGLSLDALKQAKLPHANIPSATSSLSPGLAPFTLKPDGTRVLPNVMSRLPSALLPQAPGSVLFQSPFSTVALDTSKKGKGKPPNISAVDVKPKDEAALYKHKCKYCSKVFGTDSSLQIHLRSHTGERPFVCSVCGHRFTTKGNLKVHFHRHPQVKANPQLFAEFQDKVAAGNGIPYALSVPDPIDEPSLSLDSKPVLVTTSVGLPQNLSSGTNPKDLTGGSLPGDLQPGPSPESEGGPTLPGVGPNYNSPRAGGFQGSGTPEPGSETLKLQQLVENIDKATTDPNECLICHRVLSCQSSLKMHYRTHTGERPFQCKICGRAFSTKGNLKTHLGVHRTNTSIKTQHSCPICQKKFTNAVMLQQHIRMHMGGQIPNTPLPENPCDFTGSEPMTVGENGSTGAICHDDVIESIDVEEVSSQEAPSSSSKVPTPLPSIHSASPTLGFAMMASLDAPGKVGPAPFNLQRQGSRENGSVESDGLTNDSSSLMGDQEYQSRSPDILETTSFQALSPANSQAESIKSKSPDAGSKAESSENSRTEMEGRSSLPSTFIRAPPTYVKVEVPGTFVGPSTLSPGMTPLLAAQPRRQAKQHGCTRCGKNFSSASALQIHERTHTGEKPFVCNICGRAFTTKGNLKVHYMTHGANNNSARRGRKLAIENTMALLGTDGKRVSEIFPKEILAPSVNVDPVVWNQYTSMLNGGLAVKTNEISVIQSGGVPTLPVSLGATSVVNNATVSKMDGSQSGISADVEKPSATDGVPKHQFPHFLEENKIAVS
Notes: 8-mer, flanks averaged, mean of replicates
ACAATGTA: 0.184
CACTTTCA: 0.0933
CCTTGGAA: 0.0143
GCGGTTTA: -0.119
GTTAGGAA: 0.0138
CTTCAAAC: -0.0358
CAGCTCAC: -0.16
ACTGAAGA: 0.0978

Series 4 — read-out: enzyme activity; mode: inhibitor; concentration: 20 µM; measurement: inhibition
Target: Replicase polyprotein 1ab, polymerase (rep, Severe acute respiratory syndrome coronavirus 2, UniProt P0DTD1)
CC(O)CCCCn1c(=O)c2c(ncn2C)n(C)c1=O (racemic): -1.79%
CC1(C)[C@@H](O)CC[C@]2(C)[C@H]3C(=O)C=C4[C@@H]5C[C@@](C)(C(=O)O)CC[C@]5(C)CC[C@@]4(C)[C@]3(C)CC[C@@H]12: 2.98%
Cc1nc(C)c(Cl)c(O)c1Cl: -2.73%
COc1ccc(OC)c(CN(C(C)=O)c2cc(F)ccc2Oc2ccccc2)c1: -3.08%
CCCCNc1cc(C(=O)O)cc(S(N)(=O)=O)c1Oc1ccccc1: 19.4%
CC(C)[C@H](C(=O)Nc1ccc(C(=O)NO)cc1)c1ccccc1: -2.55%
CC(Cc1ccccc1)(NC(=O)CN)c1ccccc1 (centres unmarked): -9.22%
C#Cc1c[nH]c(=O)[nH]c1=O: 0.87%
O=[N+]([O-])c1cncn1CCN1CCOCC1: -2.82%
CCCCCNCC(N)=O: 2.84%
C[C@H]1CN(Cc2ccc(CC(=O)N3CCC(Nc4cccc(F)c4)CC3)cc2)CCN1: -0.55%
Cn1cnc2c1c(=O)[nH]c(=O)n2C: -0.05%
O=C(CNC(=O)c1ccc(Cl)cc1)NO: -7.65%
COc1cc(OC)c(C(=O)CCCN2CCCC2)c(OC)c1: -2.33%
CCCCCCCCC(=O)NCc1ccc(O)c(OC)c1: 0.49%
CC(C)Oc1ccc(C(=O)N[C@H](CNC(=O)CN(C)C)Cc2ccc(-c3cn4cccc([C@H](C)O)c4n3)cc2)cc1Cl: 9.84%
O=C(O)CCc1nc(-c2ccccc2)c(-c2ccccc2)o1: -7.63%
CN1C(CCl)Nc2cc(Cl)c(S(N)(=O)=O)cc2S1(=O)=O (centres unmarked): -2.41%
COC(=O)c1c(-c2cc(OC)c(OC)c(OC)c2)c2ccnc(OCc3ncccn3)c2c(=O)n1Cc1ccnc(C)c1: -3.58%
C=CC(=O)N1CCC(Oc2cc3c(Nc4ccc(Cl)c(Cl)c4F)ncnc3cc2OC)CC1: 0.12%
CNC(=O)Oc1ccccc1OC(C)C: -2.11%
O=C(Nc1ccncc1)C(=O)c1cn(Cc2ccc(Cl)cc2)c2ccccc12: -1.04%
CCCCCCCC/C=C\CCCCCCCC(=O)NCCO: 1.77%
Nc1nc2n[nH]nc2c(=O)[nH]1: 3.48%
CNC(=O)COC(=O)NCCC1CCN(c2cccc(C)n2)CC1: -1.33%

Series 5 — technique: protein-binding microarray; molecule type: double-stranded DNA, one strand shown; matrix: in vitro; concentration: 0.8 µM; notes: whole 60-bp probe, no competitor; reading: higher = stronger binding; measurement: fluorescence intensity; constant ends, left off below: … GTCTTGATTCGCTTGACGCTGCTG
Target: Centromere-binding protein 1, full length, N-terminal tag (CBF1, Saccharomyces cerevisiae, UniProt P17106, residues 1-351)
Sequence of UniProt P17106 (whole entry, looked up): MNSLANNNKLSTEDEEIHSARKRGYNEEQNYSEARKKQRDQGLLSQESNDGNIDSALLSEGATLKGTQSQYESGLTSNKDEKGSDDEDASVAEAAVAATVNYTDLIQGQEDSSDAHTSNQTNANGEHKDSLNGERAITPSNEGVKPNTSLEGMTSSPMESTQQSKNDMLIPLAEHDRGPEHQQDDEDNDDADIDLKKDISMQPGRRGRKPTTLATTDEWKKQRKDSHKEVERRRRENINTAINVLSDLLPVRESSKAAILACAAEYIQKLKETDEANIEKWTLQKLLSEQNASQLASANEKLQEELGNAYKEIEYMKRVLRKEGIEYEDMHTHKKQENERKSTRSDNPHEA
CTAAATAACAAAAATCACGAAAAAAAAAAGCTTTTC: 524 a.u.
GAATAATATTCAGTCCGGGTGATGCTGTCATCTTAG: 536 a.u.
CTATTGAACAATAAGCACGACCTTCATCTTAGGTTC: 537 a.u.
GAAATATGTCAGATCGACGTGACATGTAACATTTAG: 762 a.u.
CTATGCATTCTTTTCCACACCACCTTCAAATTTTTC: 586 a.u.
GAACAAACAATTGTGACCAATTAATTCTATATATAG: 579 a.u.
GAACCTAGACATTATCACGCAGCCCAAGTCTCTTAG: 558 a.u.
CTATGACTGGACGGTGATGCAGTAGCTGTTAACTTC: 492 a.u.

Series 6 — read-out: enzyme activity; mode: inhibitor; concentration: 20 µM; notes: hit confirmation, no DTT; measurement: inhibition
Target: Replicase polyprotein 1ab, main protease (rep, Severe acute respiratory syndrome coronavirus 2, UniProt P0DTD1)
CCN(CC)c1ccc(C(=C2C=CC(=[N+](CC)CC)C=C2)c2ccccc2)cc1: 86.9%
CN(C)C(=S)SSC(=S)N(C)C: 99.9%
N#CSc1cc(SC#N)c(N)nc1N: 98.8%
